Assay results of several laboratories.
Every numbered part comes from another study and shows a few of its results, in no order.

Sample 1
Target: Sal-like protein 4, full length isoform A (SALL4, Homo sapiens, UniProt Q9UJQ4, residues 1-1053)
Chain of UniProt Q9UJQ4 (whole entry, looked up): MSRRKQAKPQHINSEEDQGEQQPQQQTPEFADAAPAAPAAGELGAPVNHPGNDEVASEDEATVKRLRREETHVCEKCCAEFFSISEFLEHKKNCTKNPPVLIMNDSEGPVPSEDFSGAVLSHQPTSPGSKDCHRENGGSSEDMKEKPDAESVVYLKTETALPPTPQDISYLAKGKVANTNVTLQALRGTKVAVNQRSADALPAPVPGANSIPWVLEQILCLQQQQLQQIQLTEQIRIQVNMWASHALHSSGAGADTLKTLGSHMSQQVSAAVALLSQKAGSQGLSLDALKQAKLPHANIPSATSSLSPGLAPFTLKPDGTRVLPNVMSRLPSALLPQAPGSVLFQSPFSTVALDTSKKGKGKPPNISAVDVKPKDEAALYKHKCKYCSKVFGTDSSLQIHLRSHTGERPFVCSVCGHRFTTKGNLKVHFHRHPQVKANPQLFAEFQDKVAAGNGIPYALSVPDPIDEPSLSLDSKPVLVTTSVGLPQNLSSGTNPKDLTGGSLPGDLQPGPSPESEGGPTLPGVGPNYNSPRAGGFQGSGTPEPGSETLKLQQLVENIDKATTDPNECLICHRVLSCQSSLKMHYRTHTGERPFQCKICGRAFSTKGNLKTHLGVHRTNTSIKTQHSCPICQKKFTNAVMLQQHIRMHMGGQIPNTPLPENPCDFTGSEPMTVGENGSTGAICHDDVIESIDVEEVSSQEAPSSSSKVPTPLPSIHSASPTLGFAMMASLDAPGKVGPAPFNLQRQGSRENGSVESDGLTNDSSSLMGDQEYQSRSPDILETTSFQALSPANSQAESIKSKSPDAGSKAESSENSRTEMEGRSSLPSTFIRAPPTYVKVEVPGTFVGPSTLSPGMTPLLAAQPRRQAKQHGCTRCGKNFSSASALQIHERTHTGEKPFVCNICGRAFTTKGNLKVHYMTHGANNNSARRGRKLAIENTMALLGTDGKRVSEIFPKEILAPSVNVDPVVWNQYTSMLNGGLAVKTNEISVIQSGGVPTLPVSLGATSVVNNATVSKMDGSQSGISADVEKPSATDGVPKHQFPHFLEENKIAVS
Method: universal PBM
Molecule type: double-stranded DNA, one strand shown
Matrix: in vitro
Tested at: 600 nM
Setting: 8-mer, flanks averaged, mean of replicates
Reading: higher = stronger binding
Quantity: E-score
CGCTTAAC: -0.019
AGCCTGAG: -0.0984
GCCTCGGA: -0.295
ACATTAGC: 0.031
CGATTGTA: 0.177
ATCGCCCC: -0.256
CAGGCACG: -0.25
CAGGGTAC: -0.203

Sample 2
Organism: SARS-CoV-2
Observed: cytopathic effect
Cell line: Vero E6
Tested at: 10 µM
Quantity: inhibition
Oc1cccc(-c2c3nc(c(-c4cccc(O)c4)c4ccc([nH]4)c(-c4cccc(O)c4)c4nc(c(-c5cccc(O)c5)c5ccc2[nH]5)CC4)C=C3)c1: 4.5%
CC[C@H](CO)Nc1nc(NCc2ccc(-c3ccccn3)cc2)c2ncn(C(C)C)c2n1: -6.3%
S=C=NCc1ccccc1: -0.3%

Sample 3
Target: Interferon regulatory factor 5, full length, phosphomimetic (IRF5, Homo sapiens, UniProt Q13568-2, residues 1-514, S451D/S453D/S456D/S462D)
Method: protein-binding microarray
Molecule type: double-stranded DNA, one strand shown
Matrix: in vitro
Tested at: 940 nM top
Setting: 60-bp whole probe
Added: salmon DNA 0.4 mg/ml
Relative to: random background probes
Reading: higher = stronger binding
Quantity: fitted relative affinity
Shared flanks, not repeated: GCCTAGCAC … GTCTTGATTCGCTTGACGCTGCTG
TTAGGACTGCGTCTCCTTTAGTGCTAG: -0.298 z-score
AGAGAGAGAGAGAGAGAGAGGTGCTAG: 0.651 z-score
TTAGATATCAGTCGCGATTAGTGCTAG: 0.384 z-score
TTAGAACTGTGACTGGATTAGTGCTAG: -0.488 z-score
GACGGTCTCGGACTGGGGACGTGCTAG: 0.747 z-score
CATCTCGGGCCGCCGGGCCGGTGCTAG: -0.218 z-score
GTAGGTTTCGGGACTGGGTTAGTGCTA: 7.5 z-score
GACGGTTTCCTTTCCATGACGTGCTAG: 1.88 z-score

Sample 4
Target: RNA binding protein fox-1 homolog 2, RRM domain, GST-SBP tag (RBFOX2, Homo sapiens, UniProt O43251-10, residues 100-194)
Method: RNA Bind-n-Seq
Molecule type: RNA
Matrix: in vitro
Tested at: 365 nM
Setting: natural RNA segment, single round, ends assumed
Relative to: no-protein control
Reading: higher = stronger binding
Quantity: RBNS enrichment (R)
Construct (chain): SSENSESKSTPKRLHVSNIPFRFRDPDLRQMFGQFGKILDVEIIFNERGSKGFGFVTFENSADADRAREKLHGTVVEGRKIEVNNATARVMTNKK
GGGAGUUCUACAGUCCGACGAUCGGAAAAGGAGCAGAGAGCUGUCCAUCUGGAUUGAUGGAAGAAAAGAGAACCUCAUCCAUGCCUGGAGAACAUCUAGAAAACCUUCAGCCAGCCUCCAGUGCUGUCGAGAGUGGAAUUCUCGGGUGCCAA: 0.462
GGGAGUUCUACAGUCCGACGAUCUGUCUUCUGUUGUAUUAACUUCUUUCCUUUGUGGUAUCUUGUAUCCUGUUUUAAAAACUAAAUGAAGGGAACCACAUUAGGGCCCAUGCCAGCAUCCCAGUGAAGUUCGUUGGAAUUCUCGGGUGCCAA: 0.222
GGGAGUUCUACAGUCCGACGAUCUGCCCAGGGAUUGGACCUGGACCUGGCCAAGGCCUUUUGUGUGUGUCGCUGCUGCCGGGCAACGUGCAUUGCUGGGAAGCCGAAGCCGCUGGAGGAGCGGGUGGGGGGGCUGGAAUUCUCGGGUGCCAA: 0.524
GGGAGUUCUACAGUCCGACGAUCUAACAUAUUUAUGAAGAUGAGGCCUGGUGACCCAGCAGGUUCAUUGGAUACAUAAGAAAUGAGAAUUCCUGGUUCAUGGGCCAACCUAGGACUCUGGAGUAUGCAGACUUUGGAAUUCUCGGGUGCCAA: 0.445
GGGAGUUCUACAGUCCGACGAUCGACCAUACUGCUUACGUCUUAGCCAUUCCGUCCUGCUCCCCAGCUCACUCUCUGAAGCACACAUCAUUGGCUUUCCUAUUUUUCUGUUCAUUUUUUAAUUGAGCAAAUGUUGGAAUUCUCGGGUGCCAA: 0.473
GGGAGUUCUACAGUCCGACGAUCUUCAGCGGCAUCUUAGCAGACUUCAAUAACGCAGCCGUCUCCAUGACGCUCAGAGAGCCCUGCCUCAGCGGCGUCAACGUGAUUAGUUUGCCUAAUUCAUAUUUUCACUUUGGAAUUCUCGGGUGCCAA: 0.244
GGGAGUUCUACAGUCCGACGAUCCGAUCAUCAAGAAAUACUUUCGAAAUUUCAUUUUCCUUCAGAAUAUCUUAAGAGUGCUAAAUUUUUAACUGCCUUUUUGUCGAGUCAAACUGUGGGAUUCUGAUUUGUAUUGGAAUUCUCGGGUGCCAA: 0.477
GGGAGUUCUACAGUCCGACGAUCUAAAAUCAUUACAAUAAAAACCCAAAUUGGAACUAUCUCCUCCCUUUACCCCUUUCCCUUAAUUCCUAUUCUGAUGACACUUUGGACAUGAAUUCAAGGGGCAGAUGAAUUGGAAUUCUCGGGUGCCAA: 0.457

Sample 5
Target: Replicase polyprotein 1ab, polymerase (rep, Severe acute respiratory syndrome coronavirus 2, UniProt P0DTD1)
Observed: enzyme activity
Action: inhibitor
Tested at: 20 µM
Quantity: inhibition
CC(=O)O[C@H]1C[C@H](O[C@H]2[C@@H](O)C[C@H](O[C@H]3[C@@H](O)C[C@H](O[C@H]4CC[C@@]5(C)[C@H](CC[C@@H]6[C@@H]5C[C@@H](O)[C@]5(C)[C@@H](C7=CC(=O)OC7)CC[C@]65O)C4)O[C@@H]3C)O[C@@H]2C)O[C@H](C)[C@H]1O[C@@H]1O[C@H](CO)[C@@H](O)[C@H](O)[C@H]1O: 18.4%
Cc1ccc(-c2csc3ncnc(SCCC(=O)O)c23)cc1: 3.68%
CCCSc1nc(N[C@@H]2C[C@H]2c2ccc(F)c(F)c2)c2nnn([C@@H]3C[C@H](OCCO)[C@@H](O)[C@H]3O)c2n1: 2.89%
CCc1ccc(CCOc2ccc(CC3SC(=O)NC3=O)cc2)nc1 (stereo not drawn): -8.55%
[O-][n+]1cccc(CO)c1: -0.16%
Cc1cccc(C)c1NC(=O)CC12CCCN1CCC2: -3.14%
CCCN1CCC[C@H](c2cccc(O)c2)C1: -0.17%
Cc1ccc(S(=O)(=O)c2ccc([N+](=O)[O-])o2)cc1: -3.46%
Cc1cccc(-c2[nH]ncc2-c2ccc3ncccc3n2)n1: 1.55%
CCS(=O)(=O)CCn1c([N+](=O)[O-])cnc1C: -2.68%
O=C1CNC(=O)CN1: -3.21%
CCCC(=O)C1CCN(c2ncnc3c2CN(C(=O)c2ccc(-c4ccccc4)cc2)CC3)CC1: 2.95%
CN1C(C(=O)Nc2ccccn2)=C(O)c2sc(Cl)cc2S1(=O)=O: 2.9%
CC[N+](C)(CC)CC(=O)Nc1c(C)cccc1C: 2.06%
CCc1nc2c(C)nc(C)cc2n1-c1ccc(CCNC(=O)NS(=O)(=O)c2ccc(C)cc2)cc1: -9.18%
CC(=O)N[C@@H](Cc1ccc(O)cc1)C(=O)O: 3.53%
C=C1C[C@]23C[C@@]1(O)CC[C@H]2[C@@]12C=C[C@H](O)[C@@](C)(C(=O)O1)[C@H]2[C@@H]3C(=O)O: -2.74%
CCCN(CCc1cccs1)[C@H]1CCc2c(O)cccc2C1: -1.76%
CON: 2.21%
CC(C)(C)C(=O)OCOC(=O)[C@@H]1N2C(=O)[C@@H](/N=C/N3CCCCCC3)[C@H]2SC1(C)C: 3.1%
CN(C(=O)CN(CCO)CC(=O)N(C)C(C)(C)Cc1ccccc1)C(C)(C)Cc1ccccc1: 0.07%
CCN(CC)CCOC(=O)C(c1ccccc1)c1ccccc1: -1.5%
CC(C)c1cc(C(=O)N2Cc3ccc(CN4CCN(C)CC4)cc3C2)c(O)cc1O: 0.78%
O=C1Nc2ccc(Cl)cc2[C@@](C#CC2CC2)(C(F)(F)F)O1: 1.26%
CCN(Cc1ccc(Cl)nc1)/C(=C/[N+](=O)[O-])NC: -6.08%

Single results of other studies
Cell line: HEK-293T
Organism: VSV pseudotyped with SARS-CoV-2 spike
Tested at: 10 µM
Time: 16 h
Nc1nc(=O)n([C@@H]2CS[C@H](CO)O2)cc1F
pseudovirus infection: 76.8%

CO[C@H]1/C=C/O[C@@]2(C)Oc3c(C)c(O)c4c(O)c(c(/C=N/N5CCN(C)CC5)c(O)c4c3C2=O)NC(=O)/C(C)=C\C=C\[C@H](C)[C@H](O)[C@@H](C)[C@@H](O)[C@@H](C)[C@H](OC(C)=O)[C@@H]1C
GFP-positive cells (pseudovirus infection, FDA-approved drug library screen; relative to: vehicle-treated): 87.6%

A few entries again (sample 2):
Oc1cccc(-c2c3nc(c(-c4cccc(O)c4)c4ccc([nH]4)c(-c4cccc(O)c4)c4nc(c(-c5cccc(O)c5)c5ccc2[nH]5)CC4)C=C3)c1: 4.5%
CC[C@H](CO)Nc1nc(NCc2ccc(-c3ccccn3)cc2)c2ncn(C(C)C)c2n1: -6.3%
S=C=NCc1ccccc1: -0.3%
